Experimental data gathered from unrelated publications.
Lines come from different studies, so protocols differ. ± marks the error that the study gave.
UCHL1: Ubiquitin carboxyl-terminal hydrolase isozyme L1 (UCHL1, Homo sapiens, UniProt P09936)
Sequence of UniProt P09936 (whole entry, looked up): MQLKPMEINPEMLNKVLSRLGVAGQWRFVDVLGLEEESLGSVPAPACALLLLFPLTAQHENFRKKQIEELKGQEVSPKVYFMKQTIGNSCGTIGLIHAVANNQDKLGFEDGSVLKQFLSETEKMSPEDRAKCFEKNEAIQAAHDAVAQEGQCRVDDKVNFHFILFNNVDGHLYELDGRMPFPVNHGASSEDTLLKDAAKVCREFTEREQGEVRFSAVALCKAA
Sequence of UniProt Q07794 (whole entry, looked up): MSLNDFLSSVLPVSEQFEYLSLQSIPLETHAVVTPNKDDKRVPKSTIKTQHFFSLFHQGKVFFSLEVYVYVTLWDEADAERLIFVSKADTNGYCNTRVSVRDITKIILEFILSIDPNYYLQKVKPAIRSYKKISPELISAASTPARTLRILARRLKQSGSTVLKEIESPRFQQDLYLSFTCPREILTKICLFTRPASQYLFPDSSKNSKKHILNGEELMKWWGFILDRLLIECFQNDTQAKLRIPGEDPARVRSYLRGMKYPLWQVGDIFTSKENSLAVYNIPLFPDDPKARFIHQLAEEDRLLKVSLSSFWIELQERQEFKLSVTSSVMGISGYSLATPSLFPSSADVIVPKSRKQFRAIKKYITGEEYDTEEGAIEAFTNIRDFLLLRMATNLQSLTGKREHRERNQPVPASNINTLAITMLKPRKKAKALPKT

| Compound | tested on | assay | system | conditions | how to read | endpoint | result |
| --- | --- | --- | --- | --- | --- | --- | --- |
| COc1cc(C(=O)O)ccc1NC(=O)[C@@H]1N[C@@H](CC(C)(C)C)[C@](C#N)(c2ccc(Cl)cc2F)[C@H]1c1cccc(Cl)c1F |  |  | human, plasma | 200 mg, steady state, with: venetoclax 400 mg |  | mean Ctrough | 2240 ng/mL |
| CCCOc1ccc(-c2ccc(C#N)cc2)cc1 |  |  | human mother-newborn pairs, female fetuses, cord serum |  |  | mean serum concentration | 0.92 ng/mL |
| Cc1ccc(O)c(-n2nc3ccccc3n2)c1 |  | exposure assessment | human, age 6-11 years | sunscreen |  | mean daily dermal uptake | 912 ng/kg body weight/day |
| O=C(CS(=O)(=O)c1cccc2nsnc12)Nc1cccc(Br)c1 | Histone acetyltransferase RTT109, with Vps75 (Saccharomyces cerevisiae, UniProt Q07794) | enzyme activity, inhibitor, HTS, CPM-based, dose response |  |  |  | IC50 | > 125 µM |
| CCN1C(=O)C(=Cc2ccc(-c3ccc(F)cc3)o2)C(C)=C(C#N)C1=O | UCHL1 | covalent, intact protein LC-MS |  | 12.5 µM |  | labelling | 24.9% |
| CCCCCc1ccc(C(=O)Oc2ccc(C#N)c(F)c2)cc1 |  |  | human mother-newborn pairs, female fetuses, cord serum |  |  | mean serum concentration | 0.38 ng/mL |
| C=CC(=O)N(C)CCOc1c(N)ncnc1-c1cc(F)cc(NC(=O)c2ccc(C3CC3)cc2F)c1C |  |  | human, whole blood | oral, 30 mg, single ascending dose |  | mean residence time | 1.46 h |
| CCCCc1ccc(-c2ccc(C#N)cc2)cc1 |  |  | human mother-newborn pairs, female, maternal serum |  |  | mean serum concentration | 0.18 ng/mL |
| CCNCCCNC/C=C\CNCCCNCC |  | LC-MS/MS | human cancer patients, plasma | intravenous infusion 60 min, 50 mg, median, cycle 1 |  | mean residence time | 3.59 h |
| O=C([O-])CN(CCN(CC(=O)[O-])Cc1cc(CCC(=O)NCCCCCC(=O)NCCCC[C@H](NC(=O)N[C@@H](CCC(=O)O)C(=O)O)C(=O)O)ccc1[O-])Cc1cc(CCC(=O)O)ccc1[O-].[68Ga+3].[OH3+] |  | PET/CT | human, metastatic prostate cancer, matched lesions |  |  | mean SUVmax | 17.9 ± 12.1 |
| O=C(O)[C@H]1O[C@@H](Oc2ccc(/C=C\c3cc(O)cc(O)c3)cc2)[C@H](O)[C@@H](O)[C@@H]1O |  |  | human, plasma |  |  | mean concentration | 502 nM |
| CCN1CCN(Cc2ccc(Nc3ncc(F)c(-c4cc(F)c5nc(C)n(C(C)C)c5c4)n3)nc2)CC1 |  | population PK model | human, plasma | oral |  | mean transit time | 1.54 h |
| CCc1ccc(-c2ccc(-c3cc(F)c(F)c(F)c3)c(F)c2)cc1 |  |  | human mother-newborn pairs, female fetuses, cord serum |  |  | mean serum concentration | 0.46 ng/mL |
| Clc1ccc(Cn2cc(-c3ccccc3)[n+]3c2CCC3)cc1Cl.[Cl-] | Trypanosoma cruzi | reporter translation, Renilla luciferase mRNA translation | cell-free extract | 40 µM | baseline: DMSO | inhibition | -10.3% |
| C[C@H](CCC(=O)NCC(=O)O)[C@H]1CC[C@H]2[C@@H]3CC[C@@H]4C[C@H](OS(=O)(=O)O)CC[C@]4(C)[C@H]3C[C@H](O)[C@]12C |  |  | human, plasma | control |  | mean daily plasma concentration | 0.289 ± 0.07 µM |
| N#Cc1ccc2c(c1)[C@H]1CCCN(C(=O)c3ccc4[nH]cnc4c3)[C@H]1C2 |  |  | human | 160 mg, day 7 |  | mean ACTH level | 7.5 pmol/L |
| Cc1ccc(Sc2ccccc2N2CCNCC2)c(C)c1 |  |  | healthy male humans fed, plasma | oral, 10 mg single, high-fat breakfast |  | mean Cmax | 4.1 ng/mL |

| Compound | tested on | assay | system | conditions | how to read | endpoint | result |
| --- | --- | --- | --- | --- | --- | --- | --- |
| CCc1ccc(C(=O)Oc2ccc(C#N)c(F)c2)cc1 |  |  | human mother-newborn pairs, female fetuses, cord serum |  |  | mean serum concentration | 4.11 ng/mL |
| Cn1cc(-c2cn3nccc3c(-c3cnn([C@]4(CC#N)C[C@@H](C#N)C4)c3)n2)cn1 |  |  | healthy human fed | dose not given, day 10, once daily dosing |  | mean residence time | 9.2 h |
| C[C@H](CCC(=O)NCC(=O)O)[C@H]1CC[C@H]2[C@@H]3CC[C@@H]4C[C@H](O)CC[C@]4(C)[C@H]3C[C@H](O)[C@]12C |  |  | human, plasma | oral, dose not given, control |  | mean daily plasma concentration | 0.291 ± 0.054 µM |
| CCCC1CCC(c2ccc(-c3ccc(F)c(F)c3)cc2)CC1 (stereo not drawn) |  |  | human mother-newborn pairs, cord serum |  |  | mean serum concentration | 1.15 ng/mL |
| C[C@H](CCC(=O)NCC(=O)O)[C@H]1CC[C@H]2[C@@H]3[C@H](O)C[C@@H]4C[C@H](O)CC[C@]4(C)[C@H]3CC[C@]12C |  |  | human, plasma | control |  | mean daily plasma concentration | 0.589 ± 0.066 µM |
| CCCCc1ccc(C#Cc2ccc(OCC)cc2)cc1 |  |  | human mother-newborn pairs, cord serum |  |  | mean serum concentration | 0.43 ng/mL |
| C[C@H](CCC(=O)O)[C@H]1CC[C@H]2[C@@H]3CC[C@@H]4C[C@H](OS(=O)(=O)O)CC[C@]4(C)[C@H]3CC[C@]12C |  |  | human, plasma | baseline |  | mean daily plasma concentration | 0.301 ± 0.021 µM |
| C[C@@H](O)CCOC(=O)C[C@@H](C)O |  | item: mean arterial pressure | human | oral, dose not given, 60 min post-dose vs pre-dose | baseline: pre-dose | mean change | -4 mmHg |
| O=C(O)CCCCCCCCCCCCCCCCC(=O)O |  |  | human, plasma | control |  | mean daily plasma concentration | 0.0795 ± 0.0059 µM |
| CCCCOc1ccc([C@H]2CC[C@H](CCC)CC2)c(F)c1F |  |  | human mother-newborn pairs, female fetuses, cord serum |  |  | mean serum concentration | 7.5 ng/mL |
| C[C@H](CCC(=O)NCC(=O)O)[C@H]1CC[C@H]2[C@@H]3[C@H](O)C[C@@H]4C[C@H](O)CC[C@]4(C)[C@H]3C[C@H](O)[C@]12C |  |  | human, plasma | oral, dose not given, control |  | mean daily plasma concentration | 0.0817 ± 0.0099 µM |
| Cn1cnc2c(F)c(Nc3ccc(Br)cc3Cl)c(C(=O)NOCCO)cc21 |  | population PK model | human, plasma | oral, transit compartment absorption model, fed |  | mean transit time | 2.41 h |
| C[C@H](CCC(=O)NCCS(=O)(=O)O)[C@H]1CC[C@H]2[C@@H]3CC[C@@H]4C[C@H](OS(=O)(=O)O)CC[C@]4(C)[C@H]3CC[C@]12C |  |  | human, plasma | baseline |  | mean daily plasma concentration | 0.127 ± 0.031 µM |
| O=C(O)[C@H]1O[C@@H](Oc2cc(O)cc(/C=C/c3ccc(O)cc3)c2)[C@H](O)[C@@H](O)[C@@H]1O |  |  | human, plasma |  |  | mean concentration | 2600 nM |
| C[C@H](CCC(=O)NCC(=O)O)[C@H]1CC[C@H]2[C@@H]3[C@H](O)C[C@@H]4C[C@H](O[C@@H]5O[C@H](C(=O)O)[C@@H](O)[C@H](O)[C@H]5O)CC[C@]4(C)[C@H]3CC[C@]12C |  |  | human, plasma | control |  | mean daily plasma concentration | 0.0336 ± 0.0058 µM |
| Cc1cc(C(=O)CCl)c(C)n1-c1ccc2c(c1)OCO2 | UCHL1 | covalent, intact protein LC-MS |  | 12.5 µM |  | labelling | 6.96% |

Excerpt of the above:
| Compound | tested on | assay | system | conditions | how to read | endpoint | result |
| --- | --- | --- | --- | --- | --- | --- | --- |
| CCCCCc1ccc(C(=O)Oc2ccc(C#N)c(F)c2)cc1 |  |  | human mother-newborn pairs, female fetuses, cord serum |  |  | mean serum concentration | 0.38 ng/mL |
| C=CC(=O)N(C)CCOc1c(N)ncnc1-c1cc(F)cc(NC(=O)c2ccc(C3CC3)cc2F)c1C |  |  | human, whole blood | oral, 30 mg, single ascending dose |  | mean residence time | 1.46 h |
| CCCCc1ccc(-c2ccc(C#N)cc2)cc1 |  |  | human mother-newborn pairs, female, maternal serum |  |  | mean serum concentration | 0.18 ng/mL |
| CCNCCCNC/C=C\CNCCCNCC |  | LC-MS/MS | human cancer patients, plasma | intravenous infusion 60 min, 50 mg, median, cycle 1 |  | mean residence time | 3.59 h |
